# Measurements pooled from the literature.
# Each numbered part is a random draw from the data of one study; scales do not carry over between parts. Changes are numbered by the printed parent chain.

# Sample 1
# Target: Hepatocyte nuclear factor 3-alpha (Foxa1, Mus musculus, UniProt P35582, residues 1-468, full length assumed)
# Sequence of UniProt P35582 (whole entry, looked up): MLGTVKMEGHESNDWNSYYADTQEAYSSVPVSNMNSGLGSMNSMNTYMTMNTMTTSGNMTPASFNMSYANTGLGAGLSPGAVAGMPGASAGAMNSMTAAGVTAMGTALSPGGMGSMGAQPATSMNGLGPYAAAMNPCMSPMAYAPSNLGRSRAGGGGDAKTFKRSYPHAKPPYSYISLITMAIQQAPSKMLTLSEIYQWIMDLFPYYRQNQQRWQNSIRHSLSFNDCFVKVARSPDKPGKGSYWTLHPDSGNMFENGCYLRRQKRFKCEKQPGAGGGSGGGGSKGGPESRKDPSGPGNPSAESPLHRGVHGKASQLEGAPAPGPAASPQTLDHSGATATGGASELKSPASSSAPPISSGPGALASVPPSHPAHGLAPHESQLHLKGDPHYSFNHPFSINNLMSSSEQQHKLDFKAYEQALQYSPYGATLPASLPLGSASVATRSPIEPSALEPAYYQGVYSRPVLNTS
# Technique: EMSA with sequencing
# Form: double-stranded DNA, one strand shown
# Medium: in vitro
# Tested at: 10 and 20 nM
# Setting: whole designed probe, mean of two concentrations, ends assumed
# Baseline: negative control set to 0
# Direction: higher = stronger binding
# Constant ends, left off below: GTGAGCGGTGCCCATTGATGGGGAAC … TTTCACTGGGATCGTGGGGAC
Strand,normalised bound fraction [ratio]
AATCAGTTAGAAAAAGATAACCTAGTAGAAAAATGGGCAGAAGGCTTGAGTAGACATTTCTCAAAGAAAACATCCATGTGGAAAAATAAATAAGCAAATAAAGCCAACCATGTGAAAAGGTACCTGACTTCATTAATCATCAAGGGAATGCAAATGAACGTCACGATGCACCACTGCACACTCACCGGAAGGC,0.402
ATAGACTCAATGAATCATCCCATTTTAGTTTTTAAGCTAAGCTAAGAAATACCATTGTTGAACTGTACTCAATTCAACAAACATGGATATAAATGTAAACAAGAAAATGAGACTACTTTCAGTGAGAATGCACACTATAATTCATAAGGTAAGTCTAGCTCAAATACTGAAAAGTCAACCATTTGGGATGAAA,0.383
GCCAAGCTGTGCTCATGATCACATGGGAGGGAGGTGACAATGGAAAGCAGATAAATGAACTATTGCAGCCAATTGATGAGCACAGAGAGAGGCAGATTACTGAATGTAGGCAGATAGGACCTTACACAATATCCCAGAGATCAACTTACCCCAGCACGGCTTGGACTTAGCAGAGAGGACCAATGGACCTGAA,-0.0681
GTTTTTTTTTTTAAGTTAGTAGTACCTTCTGTATCCTTCAAACATCTAAAGAGAAAAAGCTAATAGATTGTGCAATATTTCCAGAAGGCAAAGTAATCTTGCAACAAAAAAGTAAAGTAAAAGATGATCTTATGTTTGAAATGTTTCTGAGCTTTGTTTGATGGTTTCTTGATTGTGTGTGTGAGTGTGTGTG,0.021
ATCTTCCCCCTCTTCCTTGCCCCACCAGTTTGCCTTCCCGGGTATATTGGAGATAGGAAATTAATATAAGCCGGCATTCGTTAACCCTCTTCTGGCGCAAACTGCACATTGGTCTGGATGAATCATGGTCCTTTGGCGACGCCAGGCTCCGGGAGAGCAAAGCACCGTGTCAGGGCCATGATCCGGGGTGGCC,-0.00164

# Sample 2
# Target: MAFG, bZIP domain (human)
# Technique: DHFR protein complementation
# Medium: yeast
# Setting: single substitutions, most at no-binding floor
# Baseline: wild-type JUN-FOS pair
# Direction: higher = stronger binding
# Starting sequence: JUN, bZIP domain (human); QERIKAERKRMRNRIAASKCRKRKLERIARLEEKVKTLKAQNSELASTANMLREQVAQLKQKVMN; partner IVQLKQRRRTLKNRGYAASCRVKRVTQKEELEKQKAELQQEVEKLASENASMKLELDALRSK
Variant,binding fitness
E54S,-1.27 natural log
V56F,-1.46 natural log
S47V,-1.34 natural log
R53G,-1.57 natural log
A46W,-1.5 natural log
T37A,-1.4 natural log
S47G,-1.33 natural log
L31K,-1.58 natural log
R30V,-1.28 natural log
K36P,-1.5 natural log
L31V,-1.51 natural log
K39S,-1.37 natural log
L59P,-1.39 natural log

# Sample 3
# Target: Protein C-ets-1 (ETS1, Homo sapiens, UniProt P14921, residues 1-441, full length assumed)
# Sequence of UniProt P14921 (whole entry, looked up): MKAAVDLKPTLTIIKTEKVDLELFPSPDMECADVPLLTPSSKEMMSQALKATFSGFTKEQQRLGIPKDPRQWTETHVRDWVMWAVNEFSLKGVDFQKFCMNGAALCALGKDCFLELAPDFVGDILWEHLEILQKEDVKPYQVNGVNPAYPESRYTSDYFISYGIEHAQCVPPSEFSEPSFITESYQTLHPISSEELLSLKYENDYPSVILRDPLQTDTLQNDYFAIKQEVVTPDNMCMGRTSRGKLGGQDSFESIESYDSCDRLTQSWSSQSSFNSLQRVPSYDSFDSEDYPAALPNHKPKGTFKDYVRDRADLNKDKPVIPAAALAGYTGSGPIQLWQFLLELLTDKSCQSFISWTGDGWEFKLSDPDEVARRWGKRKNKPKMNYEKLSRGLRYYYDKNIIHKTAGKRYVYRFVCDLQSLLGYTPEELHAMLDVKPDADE
# Technique: protein-binding microarray
# Form: double-stranded DNA, one strand shown
# Medium: in vitro
# Tested at: not given
# Setting: k-mer, scored over probes, only values ≥0.25
# Direction: higher = stronger binding
Strand,E-score
CAACCGGA,0.431
GAAATTCC,0.256
CCGGTAGC,0.328
CAACGGAA,0.409
CGGAACAC,0.363
GGGACGGA,0.359
CGGATGAA,0.404
AGGATATA,0.347
CCGTCCGC,0.29
CGTTTCCC,0.372
CGTGCGGA,0.335
AAAGGAAA,0.406
GACAGGAC,0.269
GGAAAACA,0.312

# Sample 4
# Target: RNA binding protein fox-1 homolog 2, RRM domain, GST-SBP tag (RBFOX2, Homo sapiens, UniProt O43251-10, residues 100-194)
# Technique: RNA Bind-n-Seq
# Form: RNA
# Medium: in vitro
# Tested at: 365 nM
# Setting: natural RNA segment, single round, ends assumed
# Baseline: no-protein control
# Direction: higher = stronger binding
# Constant ends, left off below: GGGAGUUCUACAGUCCGACGAUC … UGGAAUUCUCGGGUGCCAA
# Target sequence (chain): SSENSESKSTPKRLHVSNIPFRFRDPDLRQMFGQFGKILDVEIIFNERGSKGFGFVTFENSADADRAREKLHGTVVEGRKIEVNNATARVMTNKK
Strand,RBNS enrichment (R)
CCGCUGACUCCUGCUGUGUCCUGAGGUGCAUUUCCUGUUGUACACACAAGGGCCAGGCUCCAUUCUCCCUCCCUUUCCACCAGUGCCACAGCCUCGUCUGGAAAAAGGAC,0.386
GGGAUUAAAGGCAUGCAUCACCACAGCCUACAGCAAUGUGUGUCUUAUAUACUAUGAGAUAGUGAGGGAGUAUAGAAGUGAAAACCAGGUGUCUGUUCUUGCCCUUAAUA,0.639
CCUUUUUUUGACACCUGCGCUAGGUUCUUGUAUGCUGGCUUUUCUUAAAGGAACAGCAGAGUAGAAAAGAGGUUGAGAAUGUUUUCUAGCAGGCAGAAUGUGCAUACAUG,2.63
CGGGGAGCCCUUCGGAGAUGAGGGUUUCCACGAGCGCGAGGGCCGCCCCUACUGCCGCCGGGACUUCCUGCAGCUGUUCGCCCCGCGCUGCCAGGGCUGCCAGGGCCCCA,0.366
AGUGAGGAGAAUGGGGAGUCCAUGGUUCAAGGUCAGAUGCGGCCACCAGCUGGCUUUGUGACCUUGGGCGAGUCGCCUCCCCUCUCUGAGCUGAAGCCGCCCCUCCCCUA,0.227
GAAUGUGAUGGGACUUAAAAGAAGUGAACUGAGACAAUUCACUCUGGCUGUUUGAACAGCAGCGUUUCAUAGGAAGAGAAAAAAAGAUCAAUCUUGUAUUUUCUGACCAC,0.428
CUCCUGGAAGUGUCUACCCUACAUUUGUGUCAGCUCAGGGUUGCAGUGUUGCCCAGAUGCAUUUUACAUCACUGUAAAGAGAUUACUUUUGUGGUUACUACCUGGCUUGG,0.419
UGUAGGUCGGUGCAGGAUCCCCAGAAGUGCAGGUCUCUCCAGUCUGCAGUUUGCCAACUUGUCUGCGUGCCAGCCAGCCACAGGGUGAUUCCAGAAGAGAGCUAUUUAAA,1.12
